Measured values from different studies.
Lines come from different studies, so protocols differ.
Target: Insulin receptor-related protein (INSRR, Homo sapiens, UniProt P14616)
UniProt P14616, sequence (whole entry, looked up): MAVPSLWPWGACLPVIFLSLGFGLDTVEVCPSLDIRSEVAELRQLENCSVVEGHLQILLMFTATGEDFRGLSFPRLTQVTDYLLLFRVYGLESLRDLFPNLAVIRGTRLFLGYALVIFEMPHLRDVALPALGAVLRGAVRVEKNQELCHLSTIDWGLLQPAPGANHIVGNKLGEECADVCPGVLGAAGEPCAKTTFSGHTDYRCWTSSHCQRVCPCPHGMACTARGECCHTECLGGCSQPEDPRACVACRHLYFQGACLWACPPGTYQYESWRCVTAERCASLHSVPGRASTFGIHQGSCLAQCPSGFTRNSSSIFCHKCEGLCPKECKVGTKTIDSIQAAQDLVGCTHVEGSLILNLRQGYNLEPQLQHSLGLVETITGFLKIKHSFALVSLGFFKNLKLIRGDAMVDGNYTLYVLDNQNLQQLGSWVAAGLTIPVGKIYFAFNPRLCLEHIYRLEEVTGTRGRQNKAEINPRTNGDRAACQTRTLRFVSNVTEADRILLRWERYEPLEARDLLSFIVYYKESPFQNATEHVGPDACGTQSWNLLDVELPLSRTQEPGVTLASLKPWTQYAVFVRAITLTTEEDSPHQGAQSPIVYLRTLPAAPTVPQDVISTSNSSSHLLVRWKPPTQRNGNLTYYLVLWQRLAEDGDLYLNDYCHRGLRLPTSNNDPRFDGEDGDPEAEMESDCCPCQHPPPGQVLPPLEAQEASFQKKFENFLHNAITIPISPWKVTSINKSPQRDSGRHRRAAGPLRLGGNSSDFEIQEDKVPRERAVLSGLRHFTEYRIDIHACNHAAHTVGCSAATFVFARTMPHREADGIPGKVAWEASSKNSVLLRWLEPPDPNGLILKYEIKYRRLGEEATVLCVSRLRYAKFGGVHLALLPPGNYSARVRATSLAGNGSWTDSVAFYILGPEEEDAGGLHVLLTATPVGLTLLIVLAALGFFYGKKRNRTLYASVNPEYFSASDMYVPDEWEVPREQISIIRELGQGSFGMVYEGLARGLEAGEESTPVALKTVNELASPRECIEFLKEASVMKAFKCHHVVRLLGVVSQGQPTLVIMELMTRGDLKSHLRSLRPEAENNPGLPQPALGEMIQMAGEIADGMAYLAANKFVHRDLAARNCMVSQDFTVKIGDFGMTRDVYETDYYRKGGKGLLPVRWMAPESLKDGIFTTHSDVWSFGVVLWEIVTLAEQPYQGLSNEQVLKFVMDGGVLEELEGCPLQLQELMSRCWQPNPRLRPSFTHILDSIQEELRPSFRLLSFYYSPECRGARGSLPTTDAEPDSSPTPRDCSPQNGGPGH

| SMILES | assay | setting | how to read | endpoint | result |
| --- | --- | --- | --- | --- | --- |
| CNc1ncc2c(/C=C/C(=O)N3CCC(OC)CC3)nn(Cc3cccc(C(F)(F)F)c3)c2n1 | kinase activity, inhibitor | 1 µM | relative to: untreated control | remaining activity | 94% |
| C#Cc1cc(-c2cc(Nc3nc(N[C@@H](C)c4ccc(F)cn4)ncc3Cl)n[nH]2)ccc1C=O | enzyme activity, inhibitor | 0.2 µM |  | inhibition | 43% |
| O=C1NC(=O)/C(=C/c2ccc(-c3ccc(F)cc3O)o2)S1 | enzyme activity | 10 µM |  | remaining activity | 36% |
| CCN1CCN(Cc2ccc(NC(=O)c3ccc(C)c(/C=C/c4cnc5[nH]ccc5c4OC)c3)cc2C(F)(F)F)CC1 | kinase activity | 1 µM |  | remaining activity | 100% |
| O=C(NC1CCC1)c1ccc2nc(-c3cccc(NS(=O)(=O)NCCN4CCCCC4)c3)cn2c1 | enzyme activity | 10 µM |  | remaining activity | 100% |
| C=CC(=O)N1CCC[C@@H](n2nc(-c3ccc(Oc4ccccc4)cc3)c3c(N)ncnc32)C1 |  | 0.1 µM |  | remaining activity | 130% |
| C=CC(=O)N1CCC(COCC(=O)N2CCN(c3nc(-c4cnc(N)nc4C(F)F)nc(N4CCOC[C@@H]4C)n3)CC2)CC1 | KINOMEscan | 1 µM |  | remaining binding | 87% |
| COc1cc(F)ccc1-c1ncnc(Nc2cccc(C[S@](C)(=N)=O)c2)n1 | kinase activity | 10 µM, added: 10 µM ATP |  | remaining activity | 54% |
| COc1cc(-c2cncc3c2CN(C)Cc2cc(N4CCNCC4)ccc2-3)cc(OC)c1OC | kinase activity | 1 µM, human enzyme, added: ATP 10 µM | relative to: DMSO control | remaining activity | 96% |

Some of these lines once more:
| SMILES | assay | setting | how to read | endpoint | result |
| --- | --- | --- | --- | --- | --- |
| C=CC(=O)N1CCC[C@@H](n2nc(-c3ccc(Oc4ccccc4)cc3)c3c(N)ncnc32)C1 |  | 0.1 µM |  | remaining activity | 130% |
